Results gathered from unrelated publications.
Parts stem from different laboratories: compare values within a part only. Changes are numbered by the printed parent chain.

Series 1
Target: CCNA1, cyclin fold, Cln2 fusion (human)
Method: yeast growth competition, sequencing
Matrix: yeast
Setting: weak parent motif
Baseline: not given
Direction: higher = stronger binding
Starting sequence: GMNC docking peptide (human); KNAKRNLSSEFAN; partner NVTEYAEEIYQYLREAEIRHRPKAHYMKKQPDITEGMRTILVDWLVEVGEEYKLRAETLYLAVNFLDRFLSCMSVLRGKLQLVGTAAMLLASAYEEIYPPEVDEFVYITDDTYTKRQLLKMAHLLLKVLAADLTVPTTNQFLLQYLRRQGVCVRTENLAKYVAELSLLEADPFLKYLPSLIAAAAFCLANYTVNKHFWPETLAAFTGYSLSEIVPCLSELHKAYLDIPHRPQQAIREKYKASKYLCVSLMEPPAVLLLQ
`KNAKRNLSIEFAN [S9I]` — result for “normalised enrichment score”: 0.836.
For `KNAVRNLSSEFAN [K4V]`, “normalised enrichment score” read 0.174.
For `KNAKRSLSSEFAN [N6S]`, “normalised enrichment score” read 0.339.
`KNAIRNLSSEFAN [K4I]`: “normalised enrichment score” 0.404.
`KNAKRNLSSEKAN [F11K]`: “normalised enrichment score” -0.124.
`KNAKRNLSSSFAN [E10S]` — result for “normalised enrichment score”: 0.0776.
`KNAKRNLSSERAN [F11R]`: “normalised enrichment score” -0.128.
`KNAKRNLVSEFAN [S8V]` — result for “normalised enrichment score”: 0.465.
`KNAKRNLMSEFAN [S8M]` — result for “normalised enrichment score”: 1.24.
For `KNAKRNLSSEFNN [A12N]`, “normalised enrichment score” read 1.43.

Series 2
Target: Centromere-binding protein 1, full length, N-terminal tag (CBF1, Saccharomyces cerevisiae, UniProt P17106, residues 1-351)
Sequence of UniProt P17106 (whole entry, looked up): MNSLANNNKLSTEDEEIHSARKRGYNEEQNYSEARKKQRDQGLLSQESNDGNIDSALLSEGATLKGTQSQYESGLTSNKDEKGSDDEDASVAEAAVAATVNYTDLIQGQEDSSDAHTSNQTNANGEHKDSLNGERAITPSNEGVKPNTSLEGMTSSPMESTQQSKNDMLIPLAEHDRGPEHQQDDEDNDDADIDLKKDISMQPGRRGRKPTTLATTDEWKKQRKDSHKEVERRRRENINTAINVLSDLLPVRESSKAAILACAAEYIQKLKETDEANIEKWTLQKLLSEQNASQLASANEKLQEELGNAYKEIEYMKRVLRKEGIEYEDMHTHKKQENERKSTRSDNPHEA
Method: protein-binding microarray
Molecule type: double-stranded DNA, one strand shown
Matrix: in vitro
Tested at: 0.8 µM
Setting: whole 60-bp probe, no competitor
Direction: higher = stronger binding
With `CTACAGATAGATGGGCACATGGCAAACTTAGCTTTCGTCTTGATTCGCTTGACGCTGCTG` the fluorescence intensity was 855 a.u.
The fluorescence intensity of `GAAAATAATATATCTCACACCATAATAATGTCATAGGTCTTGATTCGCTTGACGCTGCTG` is reported as 531 a.u.
The fluorescence intensity of `CTAGTCCCTCAATTACACGTTTGTTTGCTTGCTTTCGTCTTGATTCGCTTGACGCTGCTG` is reported as 493 a.u.
With `CCTAACTACTATAGTCACGTGAAATAGCTTCGTACAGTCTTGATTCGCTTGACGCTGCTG` the fluorescence intensity was 15700 a.u.
For `TGTACGAAGCTATTATACGTGACTATAGTAGTTAGGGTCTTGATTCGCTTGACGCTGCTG`, the fluorescence intensity was 673 a.u.
With `CCTAACTACTATACAGGTGAGACATAGCTTCGTACAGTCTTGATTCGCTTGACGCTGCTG` the fluorescence intensity was 528 a.u.
With `TGTACGAAGCTATGTCACGACCGTATAGTAGTTAGGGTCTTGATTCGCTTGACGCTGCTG` the fluorescence intensity was 608 a.u.
For `CCTAACTACTATATAATCATGACATAGCTTCGTACAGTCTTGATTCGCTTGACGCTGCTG`, the fluorescence intensity was 580 a.u.
For `CTATACAGTACGTGTCATGCGGTTAGTATATATTTCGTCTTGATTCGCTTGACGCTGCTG`, the fluorescence intensity was 720 a.u.
The fluorescence intensity of `GAAAGCGATAACTCTATCGTGACATTCAGTGAATAGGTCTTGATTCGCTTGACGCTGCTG` is reported as 600 a.u.
The fluorescence intensity of `GAACGATACAATACGCACGAGGATAATAAGCCCTAGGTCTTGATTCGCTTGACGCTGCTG` is reported as 725 a.u.
`CTACACTCACAATTGGACGTGCCTCAATTATTTTTCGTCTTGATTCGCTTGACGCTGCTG` has a fluorescence intensity of 522 a.u.
The fluorescence intensity of `CTAGCCAGCCGGTGTAGCCACGTGTTAAATCTTTTCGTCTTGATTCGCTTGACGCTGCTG` is reported as 5140 a.u.

Series 3
Target: RNA binding protein fox-1 homolog 2, RRM domain, GST-SBP tag (RBFOX2, Homo sapiens, UniProt O43251-10, residues 100-194)
Method: RNA Bind-n-Seq
Molecule type: RNA
Matrix: in vitro
Tested at: 365 nM
Setting: natural RNA segment, single round, ends assumed
Baseline: no-protein control
Direction: higher = stronger binding
Target sequence (chain): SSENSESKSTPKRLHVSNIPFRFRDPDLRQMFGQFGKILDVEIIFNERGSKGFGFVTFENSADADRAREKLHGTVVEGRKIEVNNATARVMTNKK
For `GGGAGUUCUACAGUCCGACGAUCAGGCGACGGUGGCCCCAGGAUGGGGAGCAGGCCUCUGCUGCCUGUUCCCUCUGCCCUUUCUCUGGCUUCCUCUGCUCCUCCUCAUCCCUGCAGGCAAAGGAAACCCUCUGUGGAAUUCUCGGGUGCCAA`, “RBNS enrichment (R)” read 0.382.
`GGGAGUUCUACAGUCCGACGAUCCCUUGUUUUCCUUUUUCUUUCAGUUUUGGACUUUGGACCCUGCACAGCCGUUCCCCAGGGUCUGAAACUUACCUGUCACGCACAGGUAGAGCAGUGCUAGCUAGCAUUACUGGAAUUCUCGGGUGCCAA` — result for “RBNS enrichment (R)”: 0.457.
`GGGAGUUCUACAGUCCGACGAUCUAGGAUAAAAAUGCACUGGUGAAGCAAAUGUAGUGCCAACAGAAGGUGAUUUUCCAGUUGUAAAUGUCAUGCAGCAUUUGAAGGGACUGUGUUUUCUUAAAAAAAAAUCAUGGAAUUCUCGGGUGCCAA`: “RBNS enrichment (R)” 0.454.
`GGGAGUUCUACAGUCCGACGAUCUAGCUAGAAAAAAAGGUUGGCUCUCAUCAGCCUUAAUUUUGGAAAGCAGCUACUUACCCCUCAGAGAAUAAAGUAUUAUGCAUUCUUGUCAAUUUGAAAACUACAUCUACUGGAAUUCUCGGGUGCCAA`: “RBNS enrichment (R)” 0.352.
Under “RBNS enrichment (R)”, `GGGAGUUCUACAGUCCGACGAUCGUUUCUCGGUUUCCCCAGUGCUGAAGACAGCAUUGCCAUCCAAAGAAACUCACAUUUUCUUUAAAGCUAUCACACUUUGUCUUCUUAUCCCCUGCUUCCUGUUCCUUCAGUGGAAUUCUCGGGUGCCAA` is recorded as 0.688.
For `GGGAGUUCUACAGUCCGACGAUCAACCCUGGGAUGUGAGCCCUGCCAUGUGCUGGUAACAUGGCUAGGCAUGUUGGGCUUCCCAAACCAUGGAGUCUGGUAACCAGUGAAGGAAGCCCCCAGAAAUAAUGAGUUGGAAUUCUCGGGUGCCAA`, “RBNS enrichment (R)” read 1.86.
Under “RBNS enrichment (R)”, `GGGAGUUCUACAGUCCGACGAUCUUUAAUUCAUGUUUGAGUCUCUUAACUGAUGGAUGCCCACUUGCCUUAAAGCAGCAUACUUAUUUUUUGUUUAUUUAUUGUGAGCUUUUUACUUUAUUAAGAUUUUACAGUGGAAUUCUCGGGUGCCAA` is recorded as 0.824.
Under “RBNS enrichment (R)”, `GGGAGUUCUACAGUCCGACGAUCACCAAAAGCUAAGGAUUGCCACCCAGCAUUCCAAGCAGACUUGUUUCCUAAAAGCAUCCUUCAUCUGCAUUCCAUCCUGGGUCAGCAUCAACCACAACAUAGCAGGCAUUUGGAAUUCUCGGGUGCCAA` is recorded as 2.8.

Further values, each from its own experiment
For `PhoQ, residues 284 288 289 292 302 303 ASASEQ`, the fold induction was 0.842 (PhoP, residues 12 14 15 18 19 NYFRM (Escherichia coli, UniProt P23836); Sort-seq, item: YFP reporter; E. coli; PhoQ-PhoP variant library, added: 10 µM Mg2+; baseline: high Mg2+ state, higher = stronger signaling).
